# Measurements collected from several papers.
# Numbered parts are unrelated; each lists some results of a single study. “And” joins repeats or separate records; there may be more than shown.
# Chain of UniProt P45984 (whole entry, looked up): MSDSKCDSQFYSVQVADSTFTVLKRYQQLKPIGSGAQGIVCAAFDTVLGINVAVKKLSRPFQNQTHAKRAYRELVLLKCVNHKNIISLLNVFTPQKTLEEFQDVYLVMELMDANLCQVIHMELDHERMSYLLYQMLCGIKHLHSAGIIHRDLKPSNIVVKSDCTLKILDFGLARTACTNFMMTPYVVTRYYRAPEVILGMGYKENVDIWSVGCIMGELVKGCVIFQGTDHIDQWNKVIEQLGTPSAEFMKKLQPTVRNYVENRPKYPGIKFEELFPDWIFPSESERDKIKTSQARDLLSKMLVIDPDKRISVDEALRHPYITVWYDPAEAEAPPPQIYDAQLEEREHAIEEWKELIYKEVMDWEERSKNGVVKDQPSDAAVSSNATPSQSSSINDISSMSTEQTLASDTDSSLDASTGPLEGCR
# Chain of UniProt Q96BR1 (whole entry, looked up): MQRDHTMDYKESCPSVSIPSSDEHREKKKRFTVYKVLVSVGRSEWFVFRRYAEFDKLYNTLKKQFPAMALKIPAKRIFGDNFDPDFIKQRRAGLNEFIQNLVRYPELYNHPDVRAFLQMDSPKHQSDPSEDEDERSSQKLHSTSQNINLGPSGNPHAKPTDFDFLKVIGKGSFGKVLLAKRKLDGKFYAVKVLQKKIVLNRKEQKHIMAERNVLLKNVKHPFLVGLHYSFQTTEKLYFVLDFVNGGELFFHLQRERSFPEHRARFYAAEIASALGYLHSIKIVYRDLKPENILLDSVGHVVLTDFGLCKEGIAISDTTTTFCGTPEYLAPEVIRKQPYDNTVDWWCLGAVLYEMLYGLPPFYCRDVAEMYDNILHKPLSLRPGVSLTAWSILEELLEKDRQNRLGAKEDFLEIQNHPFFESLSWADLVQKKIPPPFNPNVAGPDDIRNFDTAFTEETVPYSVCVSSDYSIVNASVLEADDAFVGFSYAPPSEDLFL
# Chain of UniProt Q9HBY8 (whole entry, looked up): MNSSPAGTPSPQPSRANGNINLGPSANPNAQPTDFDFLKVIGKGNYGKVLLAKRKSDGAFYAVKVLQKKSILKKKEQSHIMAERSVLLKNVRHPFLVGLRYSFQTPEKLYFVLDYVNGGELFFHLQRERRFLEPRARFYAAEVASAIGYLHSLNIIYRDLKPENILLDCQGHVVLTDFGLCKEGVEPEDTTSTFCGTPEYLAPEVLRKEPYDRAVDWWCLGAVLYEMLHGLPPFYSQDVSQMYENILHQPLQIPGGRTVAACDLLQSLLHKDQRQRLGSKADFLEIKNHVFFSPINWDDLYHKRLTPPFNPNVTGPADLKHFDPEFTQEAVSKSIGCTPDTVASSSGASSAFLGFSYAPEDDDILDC
# Chain of UniProt P09619 (whole entry, looked up): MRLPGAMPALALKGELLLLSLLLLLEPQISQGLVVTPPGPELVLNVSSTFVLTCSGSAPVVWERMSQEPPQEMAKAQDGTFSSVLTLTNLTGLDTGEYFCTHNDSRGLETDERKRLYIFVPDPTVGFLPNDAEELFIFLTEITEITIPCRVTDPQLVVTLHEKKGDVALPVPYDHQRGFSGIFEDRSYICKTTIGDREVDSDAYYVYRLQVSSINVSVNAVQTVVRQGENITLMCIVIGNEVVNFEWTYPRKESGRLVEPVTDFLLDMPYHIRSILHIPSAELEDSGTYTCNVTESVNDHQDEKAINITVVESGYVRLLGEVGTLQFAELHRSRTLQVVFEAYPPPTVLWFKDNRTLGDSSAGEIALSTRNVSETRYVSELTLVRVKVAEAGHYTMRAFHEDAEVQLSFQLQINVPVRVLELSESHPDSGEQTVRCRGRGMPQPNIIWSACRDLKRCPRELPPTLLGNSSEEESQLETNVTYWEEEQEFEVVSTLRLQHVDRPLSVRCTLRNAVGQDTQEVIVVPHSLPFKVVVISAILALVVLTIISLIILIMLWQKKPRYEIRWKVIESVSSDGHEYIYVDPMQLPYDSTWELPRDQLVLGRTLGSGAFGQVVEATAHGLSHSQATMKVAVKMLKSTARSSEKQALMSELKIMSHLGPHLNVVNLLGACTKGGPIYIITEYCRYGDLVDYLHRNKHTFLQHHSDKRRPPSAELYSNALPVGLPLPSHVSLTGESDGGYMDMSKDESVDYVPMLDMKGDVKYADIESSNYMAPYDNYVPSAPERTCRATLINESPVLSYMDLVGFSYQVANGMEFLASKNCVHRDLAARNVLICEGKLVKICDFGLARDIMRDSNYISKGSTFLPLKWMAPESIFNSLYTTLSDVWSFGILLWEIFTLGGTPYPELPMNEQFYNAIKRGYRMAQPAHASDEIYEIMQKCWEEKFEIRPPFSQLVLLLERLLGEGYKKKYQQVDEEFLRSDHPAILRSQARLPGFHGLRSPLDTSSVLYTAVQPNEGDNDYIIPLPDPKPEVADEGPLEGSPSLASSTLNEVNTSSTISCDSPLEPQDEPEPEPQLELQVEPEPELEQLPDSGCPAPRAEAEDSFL
# Chain of UniProt P57058 (whole entry, looked up): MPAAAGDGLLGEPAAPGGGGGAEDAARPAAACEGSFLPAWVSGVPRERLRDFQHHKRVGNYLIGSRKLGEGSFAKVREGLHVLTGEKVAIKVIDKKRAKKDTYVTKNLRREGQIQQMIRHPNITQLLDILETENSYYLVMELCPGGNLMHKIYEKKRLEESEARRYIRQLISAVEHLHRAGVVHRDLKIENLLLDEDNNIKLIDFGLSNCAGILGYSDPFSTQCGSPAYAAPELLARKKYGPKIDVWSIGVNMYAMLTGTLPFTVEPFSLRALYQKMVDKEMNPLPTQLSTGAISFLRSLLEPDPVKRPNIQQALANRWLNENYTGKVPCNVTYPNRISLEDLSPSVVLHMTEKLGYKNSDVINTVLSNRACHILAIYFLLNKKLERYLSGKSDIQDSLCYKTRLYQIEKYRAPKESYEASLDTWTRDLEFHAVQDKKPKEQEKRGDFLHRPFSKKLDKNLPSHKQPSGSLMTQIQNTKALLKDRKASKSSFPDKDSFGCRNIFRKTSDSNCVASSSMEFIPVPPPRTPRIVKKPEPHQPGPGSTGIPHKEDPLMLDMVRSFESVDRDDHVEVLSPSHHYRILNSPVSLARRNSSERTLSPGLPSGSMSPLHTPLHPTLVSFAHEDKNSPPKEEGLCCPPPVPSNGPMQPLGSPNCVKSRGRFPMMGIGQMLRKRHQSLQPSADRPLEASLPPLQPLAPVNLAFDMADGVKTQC
# Chain of UniProt P16591 (whole entry, looked up): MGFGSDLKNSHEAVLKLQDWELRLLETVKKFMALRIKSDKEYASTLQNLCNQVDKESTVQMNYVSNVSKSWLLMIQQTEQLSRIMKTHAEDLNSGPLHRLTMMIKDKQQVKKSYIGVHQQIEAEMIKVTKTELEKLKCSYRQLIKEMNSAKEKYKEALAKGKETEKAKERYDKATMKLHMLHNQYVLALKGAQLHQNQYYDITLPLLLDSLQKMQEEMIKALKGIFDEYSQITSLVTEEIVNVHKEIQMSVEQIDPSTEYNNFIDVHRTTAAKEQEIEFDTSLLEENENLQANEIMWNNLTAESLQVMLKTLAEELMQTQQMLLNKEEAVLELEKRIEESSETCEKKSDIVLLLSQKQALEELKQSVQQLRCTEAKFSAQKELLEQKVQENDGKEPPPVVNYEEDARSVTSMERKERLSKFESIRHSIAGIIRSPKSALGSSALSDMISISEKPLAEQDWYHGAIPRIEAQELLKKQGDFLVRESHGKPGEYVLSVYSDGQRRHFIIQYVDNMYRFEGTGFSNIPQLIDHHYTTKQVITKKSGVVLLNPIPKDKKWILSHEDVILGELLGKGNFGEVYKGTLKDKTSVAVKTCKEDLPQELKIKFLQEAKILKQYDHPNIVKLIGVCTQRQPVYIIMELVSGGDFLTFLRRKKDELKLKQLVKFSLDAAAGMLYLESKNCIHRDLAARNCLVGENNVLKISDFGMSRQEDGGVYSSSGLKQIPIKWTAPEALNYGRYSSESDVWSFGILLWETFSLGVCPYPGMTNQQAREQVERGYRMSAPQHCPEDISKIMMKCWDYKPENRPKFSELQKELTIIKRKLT
# Chain of UniProt Q96PN8 (whole entry, looked up): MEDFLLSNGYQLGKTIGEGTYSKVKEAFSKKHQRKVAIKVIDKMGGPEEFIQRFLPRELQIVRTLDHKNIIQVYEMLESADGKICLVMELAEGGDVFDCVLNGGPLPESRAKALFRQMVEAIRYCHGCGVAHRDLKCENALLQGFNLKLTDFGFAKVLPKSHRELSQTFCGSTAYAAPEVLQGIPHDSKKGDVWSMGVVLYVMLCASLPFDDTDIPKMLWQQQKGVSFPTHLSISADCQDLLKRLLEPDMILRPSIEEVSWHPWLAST

# Set 1
# Cell line: MDA-MB-231
# Observed: cell viability
# Method: CellCounting-Lite
# Tested at: 2.743 nM
# Temperature: 37 °C
# Direction: higher = more viable cells
SMILES,luminescence signal
CCn1cnc2c(NCc3nc4cc(Cl)c(Cl)cc4[nH]3)nc(N3CCN(c4ccccn4)CC3)nc21,583000 a.u. and 626000 a.u. and 581000 a.u.
CCn1cnc2c(NCc3nc4cc(Cl)c(Cl)cc4[nH]3)nc(N3CCN(S(C)(=O)=O)CC3)nc21,466000 a.u. and 429000 a.u. and 493000 a.u.
CCn1cnc2c(NCc3nc4ccc(F)c(F)c4[nH]3)nc(N3CCn4ncnc4C3)nc21,506000 a.u. and 522000 a.u. and 518000 a.u.
CCn1cnc2c(NCc3nc4cc(F)c(F)cc4[nH]3)nc(N3CCn4ncnc4C3)nc21,555000 a.u. and 480000 a.u. and 488000 a.u.
CCn1cnc2c(NCc3nc4cc(Cl)c(Cl)cc4[nH]3)nc(N3CCN(C(=O)c4ccccn4)CC3)nc21,376000 a.u. and 352000 a.u. and 374000 a.u.
CCn1cnc2c(NCc3nc4cc(Cl)c(Cl)cc4[nH]3)nc(N3CCN(C(C)=O)CC3)nc21,452000 a.u. and 460000 a.u. and 390000 a.u.
CCn1cnc2c(NCc3nc4cc(Cl)c(Cl)cc4[nH]3)nc(N3CCN(C(=O)c4ccncc4)CC3)nc21,485000 a.u. and 509000 a.u. and 385000 a.u.
CCn1cnc2c(NCc3nc4cc(Cl)c(Cl)cc4[nH]3)nc(N3CCn4ncnc4C3)nc21,520000 a.u. and 534000 a.u. and 423000 a.u.
CCn1cnc2c(NCc3nc4cc(Cl)c(Cl)cc4[nH]3)nc(N3CCN(C(=O)[C@H](C)NC(C)=O)CC3)nc21,495000 a.u. and 439000 a.u. and 452000 a.u.
CCn1cnc2c(NCc3nc4cc(Cl)c(Cl)cc4[nH]3)nc(N3CCN(C(=O)c4cccnc4)CC3)nc21,399000 a.u. and 395000 a.u. and 362000 a.u.

# Set 2
# Compound: C[C@@H]1CN(c2ccc(-c3cc(C(=O)NCCOCCOCCOCCOCCOCCOCCNC(=O)/C=C/c4[nH]cc(C(=O)N[C@@H](CC(N)=O)c5ccc(F)c(Cl)c5)c4-c4ccc(Cl)cc4F)ccc3F)cc2NC(=O)c2ccc(F)cc2C(F)(F)F)C[C@H](C)N1C
# Target: WD repeat-containing protein 5 (WDR5, Homo sapiens, UniProt P61964)
# Observed: thermal unfolding
# Method: differential scanning fluorimetry
# Tested at: 5.5 µM
# Direction: higher = more unfolded
temperature,SYPRO Orange fluorescence
52.81 °C,16600 a.u.
75.41 °C,50400 a.u.
80.41 °C,65300 a.u.
84.21 °C,63300 a.u.
50.8 °C,16700 a.u.
60.41 °C,15300 a.u.
91.81 °C,52100 a.u.

# Set 3
# Target: Myeloperoxidase (MPO, Homo sapiens, UniProt P05164)
# Chain of UniProt P05164 (whole entry, looked up): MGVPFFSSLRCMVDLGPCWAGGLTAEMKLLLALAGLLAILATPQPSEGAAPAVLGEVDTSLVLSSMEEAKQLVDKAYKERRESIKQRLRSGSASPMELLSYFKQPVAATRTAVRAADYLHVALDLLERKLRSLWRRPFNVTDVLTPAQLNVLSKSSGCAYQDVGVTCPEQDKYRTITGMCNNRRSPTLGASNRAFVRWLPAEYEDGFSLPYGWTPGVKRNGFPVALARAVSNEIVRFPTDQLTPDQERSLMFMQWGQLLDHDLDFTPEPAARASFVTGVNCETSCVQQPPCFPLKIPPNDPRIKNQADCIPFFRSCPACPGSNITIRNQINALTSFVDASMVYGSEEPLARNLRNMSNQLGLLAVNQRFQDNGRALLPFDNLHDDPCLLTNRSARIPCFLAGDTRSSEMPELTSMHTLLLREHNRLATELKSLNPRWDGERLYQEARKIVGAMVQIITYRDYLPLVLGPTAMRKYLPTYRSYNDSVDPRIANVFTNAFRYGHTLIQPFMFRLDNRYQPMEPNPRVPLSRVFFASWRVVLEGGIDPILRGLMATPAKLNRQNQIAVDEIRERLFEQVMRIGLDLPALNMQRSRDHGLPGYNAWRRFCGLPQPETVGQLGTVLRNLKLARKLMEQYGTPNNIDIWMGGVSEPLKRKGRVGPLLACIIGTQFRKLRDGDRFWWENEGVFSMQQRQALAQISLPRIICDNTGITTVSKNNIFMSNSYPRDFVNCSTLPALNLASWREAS
# Observed: enzyme activity
# Mode: inhibitor
# Method: fluorescence
SMILES,IC50 [nM]
CS(=O)(=O)c1ccc(OC/C(=C/F)CN)cc1,> 30000
NC/C(=C\F)COc1cccc(Cn2c(=S)[nH]c(=O)c3[nH]ccc32)c1F,10
NC/C(=C/F)COc1cccc(Cn2c(=S)[nH]c(=O)c3[nH]cnc32)c1,11
NC/C(=C\F)COc1cc(Cn2c(=S)[nH]c(=O)c3[nH]cnc32)cc(C(F)(F)F)c1,10
NC/C(=C\F)COc1cccc(Cn2c(=O)[nH]c(=O)c3[nH]cnc32)c1,> 30000
NC/C(=C\F)COc1cc(Cn2c(=S)[nH]c(=O)c3[nH]ccc32)ccc1Cl,10
Cc1nc2c([nH]1)c(=O)[nH]c(=S)n2Cc1cccc(OC/C(=C/F)CN)c1,699

# Set 4
# SMILES: COc1cc(-c2nc3ccc(C(=O)NCCCN(C)C)cc3n2C2CCC2)cc(OC)c1OC
# Observed: binding
# Method: competition with immobilised ligand
# Tested at: 1 µM
target,remaining binding [%]
"HUNK (Homo sapiens, UniProt P57058)",97
"Tyrosine-protein kinase ABL1, phosphorylated (ABL1, Homo sapiens, UniProt P00519, F317I)",90
"Tyrosine-protein kinase ABL1, non-phosphorylated (ABL1, Homo sapiens, UniProt P00519, T315I)",100
"MUSK (Homo sapiens, UniProt O15146)",88
"MAPK9 (Homo sapiens, UniProt P45984)",92
"SGK3 (Homo sapiens, UniProt Q96BR1)",84
"CDK2 (Homo sapiens, UniProt P24941)",90
"CDKL2 (Homo sapiens, UniProt Q92772)",100
"Tyrosine-protein kinase JAK1, JH1 (JAK1, Homo sapiens, UniProt P23458)",94
"TLK1 (Homo sapiens, UniProt Q9UKI8)",86
"PDGFRB (Homo sapiens, UniProt P09619)",100
"FER (Homo sapiens, UniProt P16591)",100
"SGK2 (Homo sapiens, UniProt Q9HBY8)",62
"FYN (Homo sapiens, UniProt P06241)",61
"PAK5 (Homo sapiens, UniProt Q9P286)",85
"TSSK3 (Homo sapiens, UniProt Q96PN8)",97
"SIK2 (Homo sapiens, UniProt Q9H0K1)",100

# Excerpt of the above (set 1):
SMILES,luminescence signal
CCn1cnc2c(NCc3nc4cc(Cl)c(Cl)cc4[nH]3)nc(N3CCN(S(C)(=O)=O)CC3)nc21,466000 a.u. and 429000 a.u. and 493000 a.u.
CCn1cnc2c(NCc3nc4ccc(F)c(F)c4[nH]3)nc(N3CCn4ncnc4C3)nc21,506000 a.u. and 522000 a.u. and 518000 a.u.
CCn1cnc2c(NCc3nc4cc(F)c(F)cc4[nH]3)nc(N3CCn4ncnc4C3)nc21,555000 a.u. and 480000 a.u. and 488000 a.u.
